Assay results pooled from the literature.
Lines come from different studies, so protocols differ. Numbers after ± are the reported error. ≈ marks a conversion by molar mass, not a printed value.

| Compound | target or system | test | test system | conditions | scale | quantity | value |
| --- | --- | --- | --- | --- | --- | --- | --- |
| CC(C)CC(O)(CC(C)C)c1cn(C(=O)N2CCCC2)nn1 | mouse T-cells | N-terminal labeled proteins, N-terminal enrichment proteomics, item: TMSB4X |  | 1 nM, 6 h | baseline: DMSO | SILAC ratio | 2.62 ± 0.12 |
| CC[C@H](C)[C@H](NC(=O)[C@H](CCCNC(=N)N)NC(=O)[C@H](CCC(N)=O)NC(=O)[C@H](CC(=O)O)NC(=O)[C@H](CC(C)C)NC(=O)[C@H](CC(C)C)NC(=O)[C@H](CC(N)=O)NC(=O)[C@H](Cc1ccccc1)NC(=O)[C@H](CC(=O)O)NC(=O)[C@@H](NC(=O)[C@@H](NC(=O)[C@H](CC(N)=O)NC(=O)CNC(=O)[C@H](CO)NC(C)=O)C(C)C)[C@@H](C)CC)C(=O)N[C@H](C(=O)N[C@@H](Cc1c[nH]c2ccccc12)C(=O)N[C@@H](CCC(N)=O)C(=O)N[C@@H](CC(N)=O)C(=O)N[C@@H](Cc1c[nH]c2ccccc12)C(=O)N[C@@H](Cc1ccc(O)cc1)C(=O)N[C@@H](C)C(N)=O)[C@@H](C)CC |  | item: HA-02 tetramer | antigen-experienced tetramer+ CD4 T cells, healthy adults, HLA-DRB1*0101 | dose not given |  | α4β7− CCR9− cells | 0% |
| C=CCc1cc2c(c(OC)c1OC)OCO2 | A-375 | cell growth or viability, MTT |  | 72 h |  | GI50 | > 250 µM |
| CC1CN1c1cc(O)c2nc(N)sc2c1 (stereo not shown) | NUP98-NSD1 mouse cells | western blot |  | concentration not given, 8 days |  | H3K36me3 level | no effect |
| COc1ccc(-n2cc(C(=O)N3C[C@]4(OC(=O)c5ccccc5NC(C)=O)CC[C@H](OC)[C@@]56[C@@H]4C[C@@H]([C@@H]35)[C@@]3(O)C[C@H](OC)[C@H]4C[C@@H]6[C@]3(O)[C@H]4OC)nn2)cc1 | RAW264.7 | western blot |  | 30, 60 or 120 µM, 24 h, with: LPS 1 µg/mL |  | iNOS protein level | decreased |
| Cc1ccc(/C=C/C(=O)O)cc1-c1cc2c(cc1C)C(C)(C)CCC2(C)C |  | RNA sequencing, item: Epha3 mRNA | rat, brain | dose not given, 24 h, single dose | baseline: vehicle | log2 fold change | -0.27 |
| Nc1ccc(/C=C/C(=O)N2CCc3c(oc4c(-c5ccc(F)cc5)cc(-c5ccc(C(=O)N6CCC(F)(F)CC6)cn5)cc34)C2)cn1 |  | immunohistochemistry | mice, MIA PaCa-2 xenograft, tumour | 100 mg/kg |  | β-catenin level | decreased |
| CN[C@@H]1[C@H](O)[C@H](NC)[C@H]2O[C@]3(O)[C@H](O[C@@H]2[C@H]1O)O[C@H](C)C[C@@]3(O)CNCCc1ccc(F)cc1 | Mycobacteroides abscessus | microbial growth | ATCC19977 | 5 days |  | MIC | 4 µg/mL (≈ 8.24 µM) |
| CC(=O)[O-].O.O.O.O.[Co+2].[O-]c1ccc(Br)cc1C=NCCN1CCOCC1 | Salmonella enterica |  | serovar Typhi | 20 µL of 100 µM per disc |  | inhibition zone diameter | 13 mm |
| COc1cc(CNC(=O)C[C@H](C)CCC=C(C)C)ccc1OCc1cn(-c2ccc(Cl)cc2Cl)nn1 | HL-60(TB) | SRB |  | 10 µM, 48 h |  | growth | 95.5% |
| CCCC/C=C/C(=O)N[C@@H](Cc1cc(F)cc(F)c1)C(=O)N[C@@H](COC(=O)[C@@H]1CCCN1C(C)=O)C(=O)OC | Mycobacterium tuberculosis ClpX | ATPase activity |  | 50 µM, DMSO 80%, with: ClpP1P2 | baseline: basal activity | remaining activity | ~60% |
| CC(C)[C@]12O[C@H]1[C@@H]1O[C@]13[C@]1(O[C@H]1C[C@H]1c4c(C(=O)c5ccccc5)oc(OC(=O)c5ccccc5)c4CC[C@@]13C)[C@@H]2O | MV4-11 | cell viability, Alamar Blue |  | 72 h |  | IC50 | 0.0162 µM |
| CC1(O)CC23CC(O)C4(O)C(C5OC5C4(C)C)C(C)(O)C2CCC1C3O (stereo not shown) |  | formalin phase II | mouse formalin test | oral, 0.10 mg/kg, 0.25 h | baseline: saline | licking time | active |
| CN[C@@H]1[C@H](O)[C@H](NC)[C@H]2O[C@]3(O)[C@H](O[C@@H]2[C@H]1O)O[C@H](C)C[C@@]3(O)CNCCC1CCOCC1 | Mycobacteroides abscessus | microbial growth | ATCC19977 | 5 days |  | MIC | 16 µg/mL (≈ 33.6 µM) |
| CC/C=C\C/C=C\C/C=C\C/C=C\C/C=C\C/C=C\CCC(=O)Nc1ccn(C2OC(CO)C(O)C2(F)F)c(=O)n1 (stereo not shown) | T47D |  |  |  |  | CC50 | 71.9 µM |
| COc1cc(CNC(=O)C[C@H](C)CCC=C(C)C)ccc1OCc1cn(-c2cccc(C(F)(F)F)c2)nn1 | HL-60(TB) | SRB |  | 10 µM, 48 h |  | growth | 96.3% |
| CC(C)C[C@H](NC(=O)CNC(=O)[C@H](CO)NC(=O)[C@@H](NC(=O)[C@H](CC(C)C)NC(=O)[C@H](CCCCN)NC(=O)[C@H](CS)NC(=O)[C@H](CCCNC(=N)N)NC(=O)[C@H](CS)NC(=O)[C@@H](NC(=O)[C@@H](NC(=O)[C@H](CO)NC(=O)[C@H](CS)NC(=O)[C@H](CC(C)C)NC(=O)[C@H](CCCCN)NC(=O)[C@H](CCC(N)=O)NC(=O)[C@H](C)NC(=O)CNC(=O)[C@H](CCCNC(=N)N)NC(=O)[C@H](CO)NC(=O)[C@H](CCCNC(=N)N)NC(=O)[C@H](CS)NC(=O)[C@H](CC(C)C)NC(=O)[C@H](CC(N)=O)NC(=O)[C@H](Cc1ccc(O)cc1)NC(=O)[C@H](CS)NC(=O)[C@H](CC(N)=O)NC(=O)[C@H](CCCNC(=N)N)NC(=O)CNC(=O)[C@H](CC(C)C)NC(=O)[C@@H](NC(=O)[C@@H](NC(=O)[C@H](CCCNC(=N)N)NC(=O)[C@H](CS)NC(=O)[C@H](CS)NC(=O)[C@H](CO)NC(=O)[C@@H](N)CCCCN)[C@@H](C)O)[C@@H](C)O)[C@@H](C)O)C(C)C)[C@@H](C)O)C(=O)N[C@@H](CO)C(=O)N[C@@H](CS)C(=O)N1CCC[C@H]1C(=O)N[C@@H](CCCCN)C(=O)NCC(=O)N[C@@H](Cc1ccccc1)C(=O)N1CCC[C@H]1C(=O)N[C@@H](CCCCN)C(=O)O |  | item: TaPR1 | Triticum aestivum cv. Fielder | dose not given, combined sgB and sgD | baseline: control | mRNA level | increased |
| CC[C@H](C)[C@H](NC(=O)[C@@H](NC(=O)[C@H](CC(=O)O)NC(C)=O)[C@@H](C)O)C(=O)N[C@@H](CCCNC(=N)N)C(=O)N[C@@H](CC(C)C)C(=O)N[C@@H](CC(C)C)C(=O)N[C@@H](Cc1ccccc1)C(=O)N[C@@H](CCC(N)=O)C(=O)N[C@@H](CC(C)C)C(=O)N[C@@H](CCSC)C(=O)N[C@@H](CCCNC(=N)N)C(=O)N1CCC[C@H]1C(=O)N1CCC[C@H]1C(=O)N[C@@H](CC(N)=O)C(=O)N[C@@H](CCSC)C(=O)N[C@H](C(=O)N1CCC[C@H]1C(=O)N[C@@H](C)C(=O)N[C@H](C(=O)N[C@@H](CC(N)=O)C(=O)N[C@@H](C)C(N)=O)C(C)C)[C@@H](C)O |  | item: HA-52 tetramer | antigen-experienced tetramer+ CD4 T cells, healthy adults, HLA-DRB1*0101 | dose not given |  | α4β7+ CCR9+ cells | 25% |
| CCN(CC)Cc1cc(Nc2c(C3CCCC3)c(C)nc3cc(Cl)ccc23)ccc1O | West Nile virus | replicon replication, luciferase reporter | Vero WNV Rluc replicon | 50 µM, 24 h |  | inhibition | inhibited |
| NNC(=O)/C=C/c1ccc(N)cc1 | Aedes aegypti | larval mortality |  | 24 h, larva |  | LC50 | 238 µg/mL (≈ 1340 µM) |
| N=C(N)Nc1ccc(-c2nc3ccc(-c4ccc5nc(-c6ccc(NC(=N)N)cc6)[nH]c5c4)cc3[nH]2)cc1 |  |  | FVB mouse, wild type | intraperitoneal, 40 mg/kg, 7 days |  | Serca1 exon 22 splicing | no effect |
| C[n+]1ccc(Nc2ccc(O)cc2)c2ccc(Cl)cc21 | West Nile virus | viral replication, Rluc reporter replicon | Vero WNV replicon cells | 24 h |  | EC50 | 33.4 ± 3.09 µM |
| Cc1cc(O)cc(C)c1CC(N)C(=O)NC1CCNc2c(Cc3ccccc3)cc(Cc3ccccc3)cc21 (stereo not shown) |  | warm water tail withdrawal | male C57BL/6 mice | intraperitoneal, 10 mg/kg |  | antinociception | inactive |
| CC[N+](C)(CC)Cc1cc(Nc2ccnc3cc(Cl)ccc23)ccc1O | Dengue virus type 2 | viral replication, Rluc reporter replicon | BHK-21 DENV2 replicon cells | 24 h |  | EC50 | 29.7 ± 2.26 µM |
| O=C(N=P12CN3CN(CN(C3)C1)C2)c1ccccn1.[Cl][Pd][Cl] | DU-145 | cell growth or viability, MTT |  | 24 h |  | IC50 | 301 µM |
| CCN(CC)Cc1cc(Nc2c(C)cnc3cc(Cl)ccc23)ccc1O | West Nile virus | viral replication, Rluc reporter replicon | Vero WNV replicon cells | 24 h |  | EC50 | 14.8 ± 0.48 µM |
| COc1cc(CNC(=O)C[C@H](C)CCC=C(C)C)ccc1OCc1cn(-c2ccc([N+](=O)[O-])cc2)nn1 | HL-60(TB) | SRB |  | 10 µM, 48 h |  | growth | 110% |
| O=C1C[C@@H](c2ccc(O)cc2)Oc2cc(O)ccc21 |  |  | Sprague-Dawley rat, Freund's adjuvant arthritis | oral, 10 mg/kg, 4 h, with: aconitine 1 mg/kg |  | hind paw volume | 1.84 ± 0.03 mL |

Excerpt of the above:
| Compound | target or system | test | test system | conditions | scale | quantity | value |
| --- | --- | --- | --- | --- | --- | --- | --- |
| N=C(N)Nc1ccc(-c2nc3ccc(-c4ccc5nc(-c6ccc(NC(=N)N)cc6)[nH]c5c4)cc3[nH]2)cc1 |  |  | FVB mouse, wild type | intraperitoneal, 40 mg/kg, 7 days |  | Serca1 exon 22 splicing | no effect |
| C[n+]1ccc(Nc2ccc(O)cc2)c2ccc(Cl)cc21 | West Nile virus | viral replication, Rluc reporter replicon | Vero WNV replicon cells | 24 h |  | EC50 | 33.4 ± 3.09 µM |
| Cc1cc(O)cc(C)c1CC(N)C(=O)NC1CCNc2c(Cc3ccccc3)cc(Cc3ccccc3)cc21 (stereo not shown) |  | warm water tail withdrawal | male C57BL/6 mice | intraperitoneal, 10 mg/kg |  | antinociception | inactive |
